Assay results from different studies.
Parts stem from different laboratories: compare values within a part only. Changes are numbered by the printed parent chain.

Block 1
Target: Histone acetyltransferase KAT6A, both winged helices, GST fusion (KAT6A, Homo sapiens, UniProt Q92794, residues 1-181)
Method: protein binding microarray
Molecule type: double-stranded DNA, one strand shown
Medium: in vitro
Tested at: not given
Setting: 8-mer, flanks averaged, mean of 2 arrays, mostly near background
Baseline: not given
Direction: higher = stronger binding
Residues (chain): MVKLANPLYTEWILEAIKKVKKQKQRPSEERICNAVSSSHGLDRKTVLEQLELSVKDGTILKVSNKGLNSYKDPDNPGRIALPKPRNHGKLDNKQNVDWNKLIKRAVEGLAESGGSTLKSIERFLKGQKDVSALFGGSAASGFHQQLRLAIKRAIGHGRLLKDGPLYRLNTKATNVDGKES
| Oligonucleotide | E-score |
| --- | --- |
| ACCATCGC | 0.171 |
| ACTACGCT | 0.0699 |
| CTTAGGCA | -0.196 |
| ATGTCGGG | 0.14 |
| ATTTCCCC | -0.1 |
| ACCACAAG | -0.114 |
| GGTTCTAA | -0.05 |
| GCGGCGCC | 0.358 |
| CCAGTGGA | -0.219 |

Block 2
Target: Ras GTPase-activating protein-binding protein 1, full length (G3BP1, Homo sapiens, UniProt Q13283)
Sequence of UniProt Q13283 (whole entry, looked up): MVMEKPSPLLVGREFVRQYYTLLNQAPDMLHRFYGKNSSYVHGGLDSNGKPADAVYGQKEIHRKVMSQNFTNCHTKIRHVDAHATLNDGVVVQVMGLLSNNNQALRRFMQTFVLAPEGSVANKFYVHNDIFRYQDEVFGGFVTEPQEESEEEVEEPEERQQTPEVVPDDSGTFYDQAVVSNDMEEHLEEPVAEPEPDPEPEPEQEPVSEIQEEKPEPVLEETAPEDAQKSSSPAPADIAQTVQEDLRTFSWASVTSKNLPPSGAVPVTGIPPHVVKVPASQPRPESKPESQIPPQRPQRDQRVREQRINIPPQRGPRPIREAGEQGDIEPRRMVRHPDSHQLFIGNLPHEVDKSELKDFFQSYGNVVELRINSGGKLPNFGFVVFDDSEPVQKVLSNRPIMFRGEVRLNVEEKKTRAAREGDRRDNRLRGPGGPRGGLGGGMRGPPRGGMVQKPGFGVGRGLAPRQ
Method: RNA Bind-n-Seq
Molecule type: RNA
Medium: in vitro
Tested at: 200 nM
Setting: whole 134-nt RNA, ends assumed
With: 150 mM LiCl
Baseline: input library
Direction: higher = stronger binding
All molecules: 7-deaza-guanosine replaces G
| Oligonucleotide | log2 enrichment |
| --- | --- |
| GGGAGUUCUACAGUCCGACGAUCUGGGAGGUGGAUUUUGUUUAGUUUUUUAGCUCAUUUCCAGGGGUGGGAAUUUUUUUUUAAUAUGUGUCAUGAAUAAAGUUGUUUUUGAAAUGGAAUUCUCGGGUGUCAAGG | 0.135 |
| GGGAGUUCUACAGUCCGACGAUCAAGUCCUGUGCUACACAUCGUAUGUACCGAAUCGGGGCCCCGGCCCCGGGCCCCGGAAAGUAUUAUGUUACGCCGUUCGGAUCUGCACUUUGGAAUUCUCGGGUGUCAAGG | -1.53 |
| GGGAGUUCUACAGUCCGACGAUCUUUGGUUAUGAACAGGAUUCGGAUUCACGUCUUGCCAACCAAUCGGGGGAGGAUCACUCCAGUGCCCAGGUCUCAGGAACCUCUGUCUUGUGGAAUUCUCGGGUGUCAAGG | -0.105 |
| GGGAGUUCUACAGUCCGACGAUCUUUAAUGUCUGCGGCACAAUGCCUGUCUGUGGGACCAUCCUGGGAAAACCUGCUUCUGGCUGUGAGGCAGAAACCCAAACUGAAGAGCUCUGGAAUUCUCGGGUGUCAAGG | 0.589 |
| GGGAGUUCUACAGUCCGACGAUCGCAGGAAGUAAAAACAAAUGGAAAUGCUUCGGAUGGUGGCAGGGGUGGGGGUUGCUAAGGAAAGGGUGGGAUGGGAGUGGGUAAAGAGUUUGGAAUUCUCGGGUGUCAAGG | -0.23 |
| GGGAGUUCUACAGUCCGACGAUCUCCUGUGCUACACAUCGUAUGUACCGAAUCAAAUUUUUAAACCCCCCCAAACCCCCAAAAAAGUAUUAUGUUACGCCGUUCGGAUCUGCAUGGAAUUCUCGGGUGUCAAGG | 0.807 |
| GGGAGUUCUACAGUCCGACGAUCUCAAGUCCUGUGCUACACAUCGUAUGUACCGAAUCGGGAAGGGGAAGGGAAGGGAAAGUAUUAUGUUACGCCGUUCGGAUCUGCACUUCCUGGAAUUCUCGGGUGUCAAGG | -0.396 |
| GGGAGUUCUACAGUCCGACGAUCGUCCUGUGCUACACAUCGUAUGUACCGAAUCGGGAAAAAGGGGAAAAAGGGAAAAAGGGAAAGUAUUAUGUUACGCCGUUCGGAUCUGCAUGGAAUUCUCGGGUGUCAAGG | 0.134 |
| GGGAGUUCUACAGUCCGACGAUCUCAAGUCCUGUGCUACACAUCGUAUGUACCGAAUCGGGGUUUGGUUUGGUUUGGGAAAGUAUUAUGUUACGCCGUUCGGAUCUGCACUUCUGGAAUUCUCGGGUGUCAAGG | -0.828 |

Block 3
Target: Interferon regulatory factor 5, full length, phosphomimetic (IRF5, Homo sapiens, UniProt Q13568-2, residues 1-514, S451D/S453D/S456D/S462D)
Method: protein-binding microarray
Molecule type: double-stranded DNA, one strand shown
Medium: in vitro
Tested at: 940 nM top
Setting: 60-bp whole probe
With: salmon DNA 0.4 mg/ml
Baseline: random background probes
Direction: higher = stronger binding
Shared flanks, not repeated: GCCTAGCAC … GTCTTGATTCGCTTGACGCTGCTG
| Oligonucleotide | fitted relative affinity |
| --- | --- |
| TCATCTCTGTTTTTGCTACTGTGCTAG | 2.1 z-score |
| TTAGGACTGGACTTGCGGTTAGTGCTA | -0.315 z-score |
| TCATGTTTGGTTCTTATACTGTGCTAG | 1.24 z-score |
| AACGGACTGCTTCTCCTGACGTGCTAG | -0.367 z-score |
| TTAGGTTTCCTACGGCTTTAGTGCTAG | 0.285 z-score |
| TGGCCTCTAGGTTTTCTGGAGTGCTAG | -0.34 z-score |
| CATTTTTTTTTTCTACTTCTGTGCTAG | 1.94 z-score |
| TTAGGTTTCGGGTATCGGTGAGTGCTA | 11 z-score |
| GACGATTTCATACTGGAGACGTGCTAG | 0.257 z-score |
| GACGGTTTCCTTATACTGACGTGCTAG | 1.59 z-score |

Block 4
Target: RING finger protein unkempt homolog, zinc fingers 1-6, SBP tag (UNK, Homo sapiens, UniProt Q9C0B0, residues 30-357)
Sequence of UniProt Q9C0B0 (30-357, looked up): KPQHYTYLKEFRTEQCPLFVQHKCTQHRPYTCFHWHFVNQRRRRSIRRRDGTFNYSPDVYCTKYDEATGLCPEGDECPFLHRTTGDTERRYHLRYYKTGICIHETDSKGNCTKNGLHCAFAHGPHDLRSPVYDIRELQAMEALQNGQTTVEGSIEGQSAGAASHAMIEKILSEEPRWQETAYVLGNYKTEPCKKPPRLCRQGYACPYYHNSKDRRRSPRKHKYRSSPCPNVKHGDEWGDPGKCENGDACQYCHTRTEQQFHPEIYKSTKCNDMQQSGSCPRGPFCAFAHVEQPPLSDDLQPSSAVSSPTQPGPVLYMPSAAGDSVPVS
Method: RNA Bind-n-Seq
Molecule type: RNA
Medium: in vitro
Tested at: 100 nM
Setting: RNA with constant flanks, vertebrate orthologous sites, ends assumed
Baseline: input RNA pool
Direction: higher = stronger binding
| Oligonucleotide | bound/input enrichment [ratio] |
| --- | --- |
| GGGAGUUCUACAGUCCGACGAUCGUCCAGAAAUGGCCCCAUCCCACCUGUUUAUUCUGUAAACUACUACCUGUAAAUACUGUUUAGCAUUCCAAUUGUCACAAAGUUAAUUUUUAUUAAAUUAUAUUUCCUAGUCUAAUAAAACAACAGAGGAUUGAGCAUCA | 1.62 |
| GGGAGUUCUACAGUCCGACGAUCAAGCCAUCUUUUCCACAUUUUCUGUAAAUAAUGGAUAAUCAUUUUAAAAAAUUUUAUUUUUAGUGCUGUUUUAACAAUGUAGAUAGAUCAUAAAUGUACUUGCUGAAUUCAAUCAUUUUUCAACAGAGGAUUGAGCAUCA | 0.871 |
| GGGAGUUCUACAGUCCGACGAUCCUGUUGUUAAGCACUGUGUUCCAGACCGUGUCUGACUUUAGUGUAACCUAGGAGAUUUUAUAGUUUUAUUUUAAUGAAAUCCUGCUUGACGCAGAGCAGCGGGGAGAGCAGUGUCUUCUACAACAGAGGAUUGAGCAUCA | 2.03 |
| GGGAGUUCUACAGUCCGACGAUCUGAAUAAACUGGGAUUUUCAAACAAUAGGAAGCUUUUUUUUUUUUUUUUAAACAGUUUAGUGUUUGGUUUGGUUUUUAUGUGGAGGACUAAACUCAUGCUUAGAGCUACAUGUGGUCUUCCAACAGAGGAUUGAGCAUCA | 1.54 |
| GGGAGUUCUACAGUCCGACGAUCAAAUUAUAGCAGGAGAGCCAAGCAGUAGCAUUGGGUUUUUUUUGUAAAUGUAAAAGUGAUUAGAUUCACACUUUGUUUCCUUAUUCAGUUUUAAAAAUAAAAAAAUACCUCAGUGCUGUUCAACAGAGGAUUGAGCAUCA | 0.338 |
| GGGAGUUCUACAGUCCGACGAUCUACUGGUAGGAAACAGGUCUAUCCAGAGAAGUAAUGCUCUAUAAAUAUUAUUAAAUAAUUCAGCUAUAGUUUUUUUUAAGUAUUAAAUUAUAUUUGAAGCAGUUAAAUGAAUUUGAGAAUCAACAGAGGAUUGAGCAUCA | 0.411 |
| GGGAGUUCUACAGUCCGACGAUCUUUCUUUUUUUGCACAUGACAGUGUUUGUAUUGAGGAUCUUCCAAGGAAGAGGGGUGCUGUAGCAGUGGUGCCUGGGUACCUGGCCUCCAGUGUCCCACCUCCUUCACCACCCUGCUUGGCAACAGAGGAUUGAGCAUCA | 0.393 |
| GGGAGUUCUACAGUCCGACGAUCACACUUAUAUUGUGGCAUAUAGUCAACAUGGAAGUAGACCAGCUCUGCUGAUUUGAAAUUUAGAUUUUUUUUUAAUUAUGUACUGGGGACAGGUUUUUGUCGCUUUACAUUGCUUCCUAGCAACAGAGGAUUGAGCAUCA | 4.93 |

Block 5
Target: ABI1, truncated, D143A, DHFR fusion (Arabidopsis thaliana)
Method: DHFR PCA, deep sequencing
Medium: yeast
Setting: methotrexate growth selection, single substitutions
With: (+)-ABA 17 µM
Baseline: wild-type fitted maximum
Direction: higher = stronger binding
Starting sequence: PYL1, truncated, DHFR fusion (Arabidopsis thaliana); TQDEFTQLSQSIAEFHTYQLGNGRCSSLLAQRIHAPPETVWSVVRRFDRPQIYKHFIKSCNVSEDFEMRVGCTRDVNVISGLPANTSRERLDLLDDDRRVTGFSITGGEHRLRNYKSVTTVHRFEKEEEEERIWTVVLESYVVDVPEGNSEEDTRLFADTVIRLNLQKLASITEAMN; partner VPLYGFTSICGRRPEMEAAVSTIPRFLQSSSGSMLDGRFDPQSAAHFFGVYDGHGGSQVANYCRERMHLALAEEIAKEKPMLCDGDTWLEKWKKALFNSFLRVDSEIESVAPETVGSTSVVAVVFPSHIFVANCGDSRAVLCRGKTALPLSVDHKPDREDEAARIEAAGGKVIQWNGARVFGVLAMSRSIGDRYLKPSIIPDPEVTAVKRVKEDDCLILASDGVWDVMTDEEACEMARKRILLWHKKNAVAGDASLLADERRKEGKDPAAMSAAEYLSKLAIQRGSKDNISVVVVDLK
| Variant | relative binding score [%] |
| --- | --- |
| R98A | 71 |
| S42E | 87 |
| N177D | 95.2 |
| P83C | 12.5 |
| D48R | 5.12 |
| E4K | 69.5 |
| V137S | -5.31 |
| V136W | 63.8 |
| K116N | 51.3 |
| Q51S | 31.2 |
| S140M | -8.29 |
| D65N | 83.9 |
| R74P | -7.72 |
| T17M | 59.4 |
| H55G | 91.1 |

Excerpt of the above (block 1):
| Oligonucleotide | E-score |
| --- | --- |
| ACCATCGC | 0.171 |
| ACTACGCT | 0.0699 |
| CTTAGGCA | -0.196 |
| ATGTCGGG | 0.14 |
| ATTTCCCC | -0.1 |
| ACCACAAG | -0.114 |
